{"data": "Measured values gathered from unrelated publications", "note": "Protocols differ between the studies behind these lines. Several values in a cell are separate wells, animals, samples, runs or records. ± marks the error that the study gave.", "chain of UniProt P10721 (whole entry, unmodified, looked up)": "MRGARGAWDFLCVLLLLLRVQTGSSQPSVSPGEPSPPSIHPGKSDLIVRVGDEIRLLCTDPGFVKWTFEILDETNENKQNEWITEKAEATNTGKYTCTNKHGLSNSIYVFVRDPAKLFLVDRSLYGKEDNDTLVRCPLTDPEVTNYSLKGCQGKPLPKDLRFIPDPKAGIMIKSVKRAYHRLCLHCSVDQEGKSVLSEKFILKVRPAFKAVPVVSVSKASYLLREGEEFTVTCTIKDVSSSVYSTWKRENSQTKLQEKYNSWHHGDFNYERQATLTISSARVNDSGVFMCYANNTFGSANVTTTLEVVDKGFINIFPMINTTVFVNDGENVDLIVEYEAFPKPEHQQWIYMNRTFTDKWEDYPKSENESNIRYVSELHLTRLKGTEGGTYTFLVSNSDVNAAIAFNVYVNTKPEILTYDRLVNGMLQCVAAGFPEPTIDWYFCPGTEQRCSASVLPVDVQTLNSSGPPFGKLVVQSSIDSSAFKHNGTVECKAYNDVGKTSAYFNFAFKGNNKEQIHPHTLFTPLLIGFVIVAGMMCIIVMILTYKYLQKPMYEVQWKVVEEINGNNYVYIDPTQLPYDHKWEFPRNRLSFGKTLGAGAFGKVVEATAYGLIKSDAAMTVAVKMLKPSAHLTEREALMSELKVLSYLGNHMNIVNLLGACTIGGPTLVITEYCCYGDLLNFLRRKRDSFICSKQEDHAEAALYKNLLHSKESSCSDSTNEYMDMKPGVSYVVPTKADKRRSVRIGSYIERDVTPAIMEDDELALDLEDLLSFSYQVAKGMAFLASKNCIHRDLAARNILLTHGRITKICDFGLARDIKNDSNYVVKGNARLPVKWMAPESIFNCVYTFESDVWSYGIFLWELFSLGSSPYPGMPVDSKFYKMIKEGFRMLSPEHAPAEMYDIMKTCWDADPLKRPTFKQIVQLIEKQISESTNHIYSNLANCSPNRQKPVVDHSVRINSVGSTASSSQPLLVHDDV"}
{"Compound": "CC(C)C[C@@H]1NC(=O)[C@@H](Cc2c[nH]c3ccccc23)NC(=O)[C@H](CCCNC(=N)N)NC(=O)[C@@H](CCC(=O)O)NC(=O)[C@H](CCC(N)=O)NC(=O)[C@@H](CCC(=O)O)NC(=O)[C@H](CCCNC(=N)N)NC(=O)[C@@H](Cc2c[nH]c3ccccc23)NC1=O", "test": "item: IL6", "test system": "LDLr-/- mouse on Western diet, liver", "conditions": "dose not given, 4 weeks", "measurement": "cytokine level", "value": "260 ± 55 pg/g tissue"}
{"Compound": "CS(C)(=O)=Nc1ccc(-c2ccc(-c3nc4cc(O[C@@H]5CO[C@H]6[C@@H]5OC[C@H]6O)[nH]c4cc3F)cc2)cc1", "target or system": "KIT (Homo sapiens, UniProt P10721, D816V)", "test": "enzyme activity, inhibitor", "conditions": "10 µM", "measurement": "inhibition", "value": "1%"}
{"Compound": "O=C1NC2(CC2)COc2ncc(F)cc2[C@H]2COCCN2c2ccn3ncc1c3n2", "test system": "Sprague-Dawley rat, female, ovaries", "conditions": "oral, 5 mg/kg/day, 4 weeks dosing, end of recovery", "measurement": "organ-to-brain weight ratio", "value": "5.35 ± 0.58%"}
{"Compound": "COc1ccc(Nc2ncnc3ccc(-c4ccc(S(=O)(=O)N5CCN(C)CC5)cc4)cc23)cc1Cl", "target or system": "Plasmodium falciparum", "test": "parasite growth, SYBR Green fluorescence", "test system": "C235 (TM91C235), drug-resistant", "measurement": "EC50", "value": "58 nM"}
{"Compound": "Cc1cc(Oc2nc(N3CC[C@@H](c4ccncc4)C3)ncc2F)[nH]n1", "target or system": "Mycobacterium tuberculosis", "test": "OD", "test system": "H37Rv PurF CRISPRi knockdown", "conditions": "0.000488 µM, with: anhydrotetracycline low", "measurement": "normalised growth", "value": "98% and 100% and 99%"}
{"Compound": "CN(C)[C@H]1C[C@@]23CC[C@@]4(O2)C(=CC[C@]2(C)[C@@H](c5ccc6ccncc6c5)CC[C@H]24)C=C3[C@@H](O)[C@@H]1O", "target or system": "SYK (Homo sapiens, UniProt P43405)", "test": "ATP probe labelling, inhibitor, KiNativ profiling", "conditions": "1 µM", "measurement": "inhibition", "value": "-0.9%"}
{"Compound": "CCOC(=O)C1(Cc2ccccc2)Oc2cc(F)ccc2N(Cc2ccccc2)C1=O (stereo not shown)", "target or system": "HaCaT", "test": "cell growth or viability, CCK-8", "conditions": "0.78 µM, 72 h", "measurement": "inhibition", "value": "0%"}
{"Compound": "CC[C@H](C)CCCCC(=O)N[C@@H](CCN)C(=O)N[C@H](C(=O)N[C@@H](CCN)C(=O)N[C@H]1CCNC(=O)[C@H]([C@@H](C)O)NC(=O)[C@H](CCN)NC(=O)[C@H](CCN)NC(=O)[C@H](CC(C)C)NC(=O)[C@@H](CC(C)C)NC(=O)[C@H](CCN)NC1=O)[C@@H](C)O", "target or system": "Escherichia coli", "test": "daily serial passaging", "test system": "ATCC 8739", "conditions": "highest sub-MIC, 40 days", "how to read": "relative to: initial MIC", "measurement": "MIC fold change", "value": 2.63}
{"Compound": "COc1ccccc1-c1n[nH]c2nc(N[C@H]3CC[C@H](NS(=O)(=O)CC(C)C)CC3)ncc12", "test": "bead binding, competition bead pull-down, item: LINJ.32.1920", "test system": "Leishmania donovani extract", "conditions": "10 µM", "how to read": "relative to: vehicle", "measurement": "relative abundance", "value": 0.43}
{"Compound": "CC(C)(C)C(=O)OCOP(=O)(OCOC(=O)C(C)(C)C)C1CCCN(O)C1=O (stereo not shown)", "target or system": "NCI-H226", "measurement": "TGI", "value": "9.62 µM"}
{"Compound": "Cc1cc(C(=O)Nc2nc3cccc(C)c3n2[C@H]2CCCCN(C(=O)/C=C/CN(C)C)C2)ccn1", "target or system": "Trypanosoma brucei", "test": "cell growth, Alamar Blue", "test system": "2T1 overexpressing Tb927.4.5310", "how to read": "relative to: parental 2T1", "measurement": "EC50 fold shift", "value": "0.73 fold and 0.62 fold"}
{"Compound": "COc1ccccc1-c1n[nH]c2nc(NC3CCN(C(=O)Cc4ccc(F)cc4F)CC3)ncc12", "test": "bead binding, competition bead pull-down, item: LINJ.31.1230", "test system": "Leishmania donovani extract", "conditions": "10 µM", "how to read": "relative to: vehicle", "measurement": "relative abundance", "value": 0.93}
{"Compound": "CC(C)[C@H]1NC(=O)C[C@H]2/C=C/CCSSC[C@@H](NC1=O)C(=O)N[C@H](Cc1cccc3ccccc13)C(=O)NCC(=O)O2", "target or system": "KIT (Homo sapiens, UniProt P10721, D816E)", "test": "enzyme activity, inhibitor", "conditions": "10 µM", "measurement": "inhibition", "value": "-5.5%"}
{"Compound": "CC[C@H](C)[C@H](NC(=O)[C@H](CO)NC(=O)[C@H](Cc1ccc(O)cc1)NC(=O)[C@H](Cc1ccc(O)cc1)NC(=O)[C@H](CC(N)=O)NC(=O)CNC(=O)[C@H](CO)NC(=O)[C@H](Cc1ccc(O)cc1)NC(=O)[C@H](CO)NC(=O)[C@H](CO)NC(=O)[C@H](CC(N)=O)NC(=O)COCCOCCNC(=O)CN1CCN(CC(=O)O)CCN(CC(=O)O)CCN(CC(=O)O)CC1)C(=O)N[C@@H](CC(C)C)C(N)=O [copper-64 labelled]", "test": "dynamic PET", "test system": "tamoxifen-induced PDAC mouse model, pancreas", "conditions": "2.5 min, CLDN4-expressing tumours", "measurement": "maximum pancreas uptake", "value": "15.6 %IA/cc"}
{"Compound": "N#Cc1cccc(/C=C/C(=O)c2ccc(O)cc2)c1", "target or system": "U-87 MG", "test": "item: STX1A", "conditions": "concentration not given", "how to read": "relative to: untreated", "measurement": "mRNA level", "value": "0.037 fold"}
{"Compound": "CC(C)CC(C(=O)N1CC2(CC1C#N)C(=O)Nc1ccccc12)N(C)C(=O)c1cc2c(F)cc(F)c(F)c2[nH]1 (stereo not shown)", "target or system": "Human coronavirus 229E", "test": "cytopathic effect", "test system": "MRC5", "conditions": "1.125 µM", "measurement": "inhibition", "value": "102%"}
{"note": "Some of these lines once more:"}
{"Compound": "Cc1cc(Oc2nc(N3CC[C@@H](c4ccncc4)C3)ncc2F)[nH]n1", "target or system": "Mycobacterium tuberculosis", "test": "OD", "test system": "H37Rv PurF CRISPRi knockdown", "conditions": "0.000488 µM, with: anhydrotetracycline low", "measurement": "normalised growth", "value": "98% and 100% and 99%"}
{"Compound": "CN(C)[C@H]1C[C@@]23CC[C@@]4(O2)C(=CC[C@]2(C)[C@@H](c5ccc6ccncc6c5)CC[C@H]24)C=C3[C@@H](O)[C@@H]1O", "target or system": "SYK (Homo sapiens, UniProt P43405)", "test": "ATP probe labelling, inhibitor, KiNativ profiling", "conditions": "1 µM", "measurement": "inhibition", "value": "-0.9%"}
